Experimental data from different studies.
Parts stem from different laboratories: compare values within a part only. ± marks the error that the study gave. In brackets after ≈: the same amount, converted by molar mass.
UniProt P21397, sequence (whole entry, looked up): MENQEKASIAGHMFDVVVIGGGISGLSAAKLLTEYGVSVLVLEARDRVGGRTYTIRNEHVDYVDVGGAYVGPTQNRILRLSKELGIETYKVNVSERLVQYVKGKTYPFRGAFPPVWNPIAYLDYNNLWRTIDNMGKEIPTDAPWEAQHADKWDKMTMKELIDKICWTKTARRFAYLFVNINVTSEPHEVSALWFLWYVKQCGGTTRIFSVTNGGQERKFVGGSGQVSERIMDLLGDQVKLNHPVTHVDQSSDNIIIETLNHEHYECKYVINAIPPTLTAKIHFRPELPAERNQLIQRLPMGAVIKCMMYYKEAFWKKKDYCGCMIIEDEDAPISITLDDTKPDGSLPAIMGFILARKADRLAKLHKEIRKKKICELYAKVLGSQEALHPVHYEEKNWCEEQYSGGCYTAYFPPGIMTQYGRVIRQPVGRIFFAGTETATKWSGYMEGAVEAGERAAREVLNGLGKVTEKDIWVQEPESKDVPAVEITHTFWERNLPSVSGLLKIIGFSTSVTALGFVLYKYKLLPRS
UniProt P31424, sequence (whole entry, looked up): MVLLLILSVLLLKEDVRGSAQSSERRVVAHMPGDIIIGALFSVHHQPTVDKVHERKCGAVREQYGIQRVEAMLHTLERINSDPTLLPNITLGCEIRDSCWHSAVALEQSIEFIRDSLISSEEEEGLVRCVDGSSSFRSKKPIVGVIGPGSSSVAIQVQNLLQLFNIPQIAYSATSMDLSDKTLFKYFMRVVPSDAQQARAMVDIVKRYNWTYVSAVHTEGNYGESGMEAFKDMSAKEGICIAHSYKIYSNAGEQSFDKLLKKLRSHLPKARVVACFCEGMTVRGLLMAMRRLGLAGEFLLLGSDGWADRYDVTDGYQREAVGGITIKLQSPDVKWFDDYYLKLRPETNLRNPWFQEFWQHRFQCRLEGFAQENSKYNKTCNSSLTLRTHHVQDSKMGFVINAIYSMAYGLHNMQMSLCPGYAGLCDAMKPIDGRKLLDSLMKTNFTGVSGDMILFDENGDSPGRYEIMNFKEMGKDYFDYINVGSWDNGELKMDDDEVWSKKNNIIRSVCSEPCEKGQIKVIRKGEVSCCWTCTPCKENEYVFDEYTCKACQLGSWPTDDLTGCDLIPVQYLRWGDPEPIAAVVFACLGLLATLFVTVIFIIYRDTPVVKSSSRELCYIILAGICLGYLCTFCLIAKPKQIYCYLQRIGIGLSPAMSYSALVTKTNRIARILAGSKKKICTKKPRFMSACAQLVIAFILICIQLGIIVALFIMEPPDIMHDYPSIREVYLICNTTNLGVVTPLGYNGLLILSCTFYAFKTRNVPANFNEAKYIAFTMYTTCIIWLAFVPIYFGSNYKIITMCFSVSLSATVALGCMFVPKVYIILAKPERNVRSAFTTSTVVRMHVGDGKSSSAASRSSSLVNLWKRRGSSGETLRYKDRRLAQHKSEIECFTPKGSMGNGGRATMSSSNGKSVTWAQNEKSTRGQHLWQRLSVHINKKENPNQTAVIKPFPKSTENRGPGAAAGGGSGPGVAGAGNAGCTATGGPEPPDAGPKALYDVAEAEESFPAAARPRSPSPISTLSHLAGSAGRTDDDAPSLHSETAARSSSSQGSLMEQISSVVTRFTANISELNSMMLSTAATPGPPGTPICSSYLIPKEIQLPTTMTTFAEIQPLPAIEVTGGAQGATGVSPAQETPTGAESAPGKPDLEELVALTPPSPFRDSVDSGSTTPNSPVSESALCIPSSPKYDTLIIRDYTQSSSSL

Set 1
Structure (SMILES): CC[C@H](C)[C@H](NC(=O)[C@H](CCCCN)NC(=O)[C@H](CCC(N)=O)NC(=O)[C@H](Cc1ccccc1)NC(=O)[C@@H](NC(=O)[C@H](CCCCN)NC(=O)[C@H](CCCCN)NC(=O)[C@H](CC(C)C)NC(=O)[C@H](C)NC(=O)[C@H](CC(N)=O)NC(=O)[C@@H](N)CC(C)C)C(C)C)C(=O)N[C@@H](Cc1c[nH]cn1)C(N)=O
Time: 18 h
Temperature: 37 °C
organism | assay | system | MIC
Bacillus subtilis | – | KCTC 1998 | 8 µM (≈ 11.5 µg/mL)
Pseudomonas aeruginosa | broth microdilution | ATCC 27853 | 8 µM (≈ 11.5 µg/mL)
Escherichia coli | – | CCARM 1238, resistant | 4 µM (≈ 5.75 µg/mL)
Staphylococcus aureus | broth microdilution | ATCC 25923 | 8 µM (≈ 11.5 µg/mL)
Acinetobacter baumannii | broth microdilution | ATCC 19606 | 4 µM (≈ 5.75 µg/mL)
Pseudomonas aeruginosa | – | 4891, resistant | 8 µM (≈ 11.5 µg/mL)

Other studies, line by line
TTR: Transthyretin (TTR, Homo sapiens, UniProt P02766)
SMILES | tested on | assay | system | setting | endpoint | result
CC(C)C[C@H](NC(=O)[C@@H](CCCCNC(=O)CCOCCOCCOCCN=[N+]=[N-])NC(=O)[C@H](Cc1ccc(O)cc1)NC(=O)[C@H](CO)NC(=O)[C@H](Cc1c[nH]c2ccccc12)NC(=O)[C@H](Cc1c[nH]cn1)NC(=O)[C@@H]1CCC(=O)N1)C(=O)N[C@@H](CCCNC(=N)N)C(=O)N1CCC[C@H]1C(=O)NCC(N)=O | TTR | binding | – | – | Kd | > 10000 nM
NC1CC1c1ccc(NC(=O)C(Cc2ccc(Br)cc2)NC(=O)OCc2ccccc2)cc1 (stereo not shown) | NB-4 APL cells | – | – | – | IC50 | 5800 ± 800 nM
CC[C@H](C)[C@H](NC(=O)[C@H](Cc1ccc(O)cc1)NC(=O)[C@@H]1CCCN1C(=O)[C@H](CCCNC(=N)N)NC(=O)[C@H](CCCNC(=N)N)NC(=O)[C@@H]1CCCN1C(=O)[C@H](CCCCN)NC(=O)[C@H](CC(N)=O)NC(=O)[C@H](CCC(=O)O)NC(=O)[C@H](Cc1ccc(O)cc1)NC(=O)[C@H](CC(C)C)NC(=O)[C@H](CCC(=O)O)NC(=O)CCOCCOCCOCCn1cc(CCCOc2cc(OCCCc3c(C)n[nH]c3C)cc(C(=O)O)c2)nn1)C(=O)N[C@@H](CC(C)C)C(=O)O | TTR | binding | – | – | Kd | 460 nM
NC1CC1c1ccc(NC(=O)c2cccc3ccccc23)cc1 (stereo not shown) | Amine oxidase [flavin-containing] A (MAOA, Homo sapiens, UniProt P21397) | enzyme activity, inhibitor, HRP-coupled | – | 100 µM, added: kynuramine substrate | inhibition | 96%
CC(C)C[C@@H]1NC(=O)[C@H](CCCCN)NC(=O)[C@H]([C@@H](C)O)NC(=O)[C@H](CC(C)C)NC(=O)[C@H](CC(C)C)NC(=O)[C@H](CCCNC(=N)N)NC(=O)[C@H](C)NC1=O | Epidermal growth factor receptor, extracellular domain (EGFR, Homo sapiens, UniProt P00533) | binding, SPR | extracellular domain | without EGF bound | Kd | 1000 nM
N#Cc1cnc(Nc2nc3ccccc3o2)nc1-c1cccnc1 | Metabotropic glutamate receptor 5 (Grm5, Rattus norvegicus, UniProt P31424) | calcium mobilization, negative allosteric modulator, cell-based | – | added: glutamate at EC80 | IC50 | 500 ± 23 nM
CC[C@H](C)[C@H](NC(=O)[C@H](C)NC(=O)CNC(=O)[C@H](CCCCN)NC(=O)[C@H](CC(N)=O)NC(=O)[C@H](CO)NC(=O)CNC(=O)[C@@H](NC(=O)[C@H](CC(=O)O)NC(=O)[C@H](C)NC(=O)[C@H](Cc1ccccc1)NC(=O)[C@H](Cc1ccccc1)NC(=O)[C@@H](NC(=O)[C@H](CC(C)C)NC(=O)[C@H](CCCCN)NC(=O)[C@H](CCC(N)=O)NC(=O)[C@H](Cc1c[nH]cn1)NC(=O)[C@H](Cc1c[nH]cn1)NC(=O)[C@@H](NC(=O)[C@H](CCC(=O)O)NC(=O)[C@H](Cc1ccc(O)cc1)NC(=O)CNC(=O)[C@H](CO)NC(=O)[C@H](CC(=O)O)NC(=O)[C@H](Cc1c[nH]cn1)NC(=O)[C@H](CCCNC(=N)N)NC(=O)[C@H](Cc1ccccc1)NC(=O)[C@H](CCC(=O)O)NC(=O)[C@H](C)NC(=O)[C@@H](N)CC(=O)O)C(C)C)C(C)C)C(C)C)C(=O)N[C@H](C(=O)NCC(=O)N[C@@H](CC(C)C)C(=O)N[C@@H](CCSC)C(=O)N[C@H](C(=O)NCC(=O)NCC(=O)N[C@H](C(=O)N[C@H](C(=O)O)C(C)C)C(C)C)C(C)C)[C@@H](C)CC | – | aggregation, Tyr fluorescence anisotropy | – | 10 µM, pH 7.40 | first-order rate constant | 0.08 s⁻¹

Excerpt of the above (set 1):
organism | assay | system | MIC
Bacillus subtilis | – | KCTC 1998 | 8 µM (≈ 11.5 µg/mL)
Pseudomonas aeruginosa | – | 4891, resistant | 8 µM (≈ 11.5 µg/mL)
